Results gathered from unrelated publications.
Lines come from different studies, so protocols differ. ± marks the error that the study gave.

SMILES | cell line | assay | test system | setting | scale | measurement | result
CC(C)(C)c1ccc(CN2CCN(C(c3ccccc3)c3ccc(Cl)cc3)CC2)cc1 (stereo not shown) | African green monkey cells | – | – | 5 days | – | CC50 | 81.3 µM
Nc1nc2c(ncn2[C@@H]2O[C@@H]3COP(=O)(O)O[C@H]4[C@@H](O)[C@H](n5cnc6c(=O)[nH]c(N)nc65)O[C@@H]4COP(=O)(O)O[C@H]3[C@H]2O)c(=O)[nH]1 | HFF-1 | – | – | 10 µg/mL | – | viability | 94.5%
Oc1ccc(C(c2ccc(O)cc2)(C(F)(F)F)C(F)(F)F)cc1 | HepG2 spheroids | annexin V-FITC/PI flow cytometry | – | 1 µM, 96 h | – | late apoptotic cells | 32.6 ± 7.96%
CC[C@H](C)[C@H](NC(=O)CNC(=O)[C@H](CCSC)NC(=O)[C@H](CO)NC(=O)[C@@H](NC(=O)[C@H](CCC(N)=O)NC(=O)[C@H](CC(C)C)NC(=O)CNC(=O)[C@@H](NC(=O)[C@H](CO)NC(=O)[C@H](CCCCN)NC(=O)[C@H](CC(C)C)NC(=O)[C@H](CCCCN)NC(=O)[C@H](CCCCN)NC(=O)[C@H](CCCCN)NC(=O)[C@@H](NC(=O)[C@H](CCCCN)NC(=O)[C@@H]1CSSC[C@H](NC(=O)[C@H](CCCCN)NC(=O)[C@@H](N)CCCCN)C(=O)N[C@@H](CCCCN)C(=O)N[C@@H](Cc2ccccc2)C(=O)N[C@@H](CC(C)C)C(=O)N1)C(C)C)C(C)C)[C@@H](C)CC)C(=O)O | RAW264.7 | MTT | – | 24 h | – | lowest toxic concentration | > 6.25 µM
CCCCCCCCCCCC(=O)N[C@H](CCC(=O)NC(CCCC(N)C(=O)O)C(=O)O)C(=O)O (stereo partly shown) | HFF-1 | – | – | 1 µg/mL | – | viability | 89.7%
CN(CC[C@H](Oc1cccc2ccccc12)c1cccs1)N=O | TK6 expressing CYP2C19 | – | – | 1 µM, 4 h, without S9 | reference: vehicle | relative survival | 70.7%
C=CCn1c(=O)n([C@@H]2O[C@H](CO)[C@@H](O)[C@H]2O)c2nc(N)[nH]c(=O)c21 | HFF-1 | – | – | 10 µM, 48 h | – | viability | 88.4%
O=S(=O)(O)c1nc2ccccc2s1 | rat hepatoma cells | cell viability | – | 24 h, freely dissolved concentration | – | IC10 | 1290 µM
CC(=O)N[C@@H]1[C@@H](O[C@H](C)C(=O)N[C@@H](C)C(=O)N[C@H](CCC(=O)O)C(N)=O)[C@H](O)[C@@H](CO)O[C@H]1O | HFF-1 | – | – | 10 µg/mL | – | viability | 88%
CC(=O)N[C@@H](CC(C)C)C(=O)N[C@@H](CC(C)C)C(=O)N[C@@H](CCCCN)C(=O)N[C@@H](CC(C)C)C(=O)N[C@@H](CC(C)C)C(=O)N[C@@H](CCCCN)C(=O)N[C@@H](CCCCN)C(=O)N1CCC[C@H]1C(=O)N[C@@H](CC(C)C)C(=O)N[C@@H](CCCCN)C(=O)N[C@@H](CC(C)C)C(=O)N[C@@H](CC(C)C)C(=O)N[C@@H](CCCCN)C(N)=O | human red blood cells | haemolysis | – | 6 h, 37 °C, 5% haematocrit in PBS | – | MHC10 | > 160 µM
CN1[C@@H]2CC[C@H]1C[C@@H](OC(c1ccccc1)c1ccccc1)C2 | African green monkey cells | – | – | 5 days | – | CC50 | 46.8 µM
Oc1ccc(C2(c3ccc(O)cc3)c3ccccc3-c3ccccc32)cc1 | HepG2 spheroids, dissociated | annexin V-FITC/PI flow cytometry | – | 0.01 µM, 96 h | – | late apoptotic cells | 32.1 ± 8.42%
O=c1ccc2ccc(OCCCCN3CCN(c4cccc5sccc45)CC3)cc2[nH]1 | African green monkey cells | – | – | 5 days | – | CC50 | 12 µM
CC(C)C[C@H](N)C(=O)N[C@@H](Cc1c[nH]c2ccccc12)C(=O)N[C@@H](Cc1c[nH]c2ccccc12)C(=O)N[C@@H](CCCNC(=N)N)C(=O)N[C@@H](Cc1c[nH]c2ccccc12)C(=O)N[C@@H](Cc1c[nH]c2ccccc12)C(=O)N[C@@H](CCCNC(=N)N)C(=O)N[C@@H](Cc1c[nH]c2ccccc12)C(=O)N[C@@H](CCCNC(=N)N)C(=O)O | HEK-293T cells | CCK-8 | – | 4 h, 37 °C, 10% cell death | – | lowest cytotoxic concentration | 256 µg/mL
CN(C)CC/C=C1\c2ccccc2CSc2ccccc21 | African green monkey cells | – | – | 5 days | – | CC50 | 20 µM
CCC(C)(O)c1ccc(OCCc2cccc(F)c2)c(C(N)=O)c1 (stereo not shown) | HepG2 | – | – | 3 (unit not given) | reference: CC50 glucose over CC50 galactose | selectivity ratio | 1

SMILES | cell line | assay | test system | setting | scale | measurement | result
CN(C(=O)n1cnc(-c2ccc[n+]([O-])c2)c1)C1CCCCC1 | COS-7 expressing human FAAH | – | culture supernatant | 100 nM, 3 h | – | concentration | 101 ± 1.2 nM
Cn1c(N)nc2c3cccnc3ccc21 | rat hepatoma cells | cell confluency, IncuCyte imaging | – | 24 h, nominal concentration | – | IC10 | > 217 µM
Cc1ccc(OCCc2ccc(Br)cc2)c(C(N)=O)c1 | HepG2 | – | galactose medium | 3 (unit not given) | – | CC50 | 10 ± 5.6 µM
CC(c1ccccc1)(c1ccc(O)cc1)c1ccc(O)cc1 | HepG2 spheroids | DNA strand breaks, comet | – | 24 h | – | lowest DNA strand break concentration | 40 µM
CC[C@H](C)[C@H](NC(=O)[C@H](C)NC(=O)[C@H](CCCNC(=N)N)NC(=O)[C@H](CCCNC(=N)N)NC(=O)[C@@H](NC(=O)[C@H](CO)NC(=O)[C@H](CC(N)=O)NC(=O)[C@@H](NC(=O)[C@H](Cc1ccccc1)NC(=O)[C@H](CO)NC(=O)[C@H](CCCCN)NC(=O)[C@@H](NC(=O)[C@H](Cc1ccccc1)NC(=O)[C@H](CCCCN)NC(=O)[C@@H](N)C(C)C)C(C)C)[C@@H](C)CC)[C@@H](C)CC)C(=O)N[C@@H](CC(N)=O)C(=O)N[C@@H](CCCCN)C(=O)N[C@@H](Cc1ccc(O)cc1)C(=O)N1CCC[C@H]1C(=O)N1CCC[C@H]1C(=O)N[C@H](C(=O)N[C@@H](CC(N)=O)C(=O)N[C@@H](CC(C)C)C(=O)N[C@@H](CCCCN)C(=O)N[C@H](C(=O)N[C@@H](CCCCN)C(=O)N[C@@H](CS)C(=O)N[C@@H](CC(N)=O)C(=O)N[C@@H](CCCNC(=N)N)C(=O)N[C@@H](CC(C)C)C(=O)N[C@@H](CC(N)=O)C(=O)N[C@@H](CO)C(=O)N[C@H](C(=O)N[C@@H](CC(=O)O)C(=O)N1CCC[C@H]1C(=O)N[C@@H](CCCCN)C(=O)N[C@@H](CCC(N)=O)C(=O)N1CCC[C@H]1C(=O)N1CCC[C@H]1C(=O)N[C@@H](CCCNC(=N)N)C(=O)N1CCC[C@H]1C(=O)N[C@@H](Cc1ccccc1)C(=O)N[C@@H](CCCNC(=N)N)C(=O)N[C@@H](CO)C(=O)N[C@@H](Cc1ccccc1)C(=O)N[C@H](C(=O)O)C(C)C)[C@@H](C)CC)[C@@H](C)CC)[C@@H](C)CC | human red blood cells | hemolysis | – | – | – | HC50 | 71.1 µmol/L
NC(=O)c1cc(C2CC2)ccc1OCCc1cccc(F)c1 | HepG2 | – | – | 3 (unit not given) | reference: CC50 glucose over CC50 galactose | selectivity ratio | > 1
N#C[C@@]1(n2ccc(N)nc2=O)O[C@H](CO)[C@@H](O)[C@H]1O | CHO | – | – | 250 µM, without S9 | – | micronucleated cells | 0.44%
CC(C)C[C@H](NC(=O)[C@H](CCCCN)NC(=O)[C@H](CC(C)C)NC(=O)[C@H](CC(C)C)NC(=O)[C@H](CCCCN)NC(=O)CNC(=O)[C@H](CC(C)C)NC(=O)CNC(=O)[C@H](CCCCN)NC(=O)[C@H](CC(C)C)NC(=O)[C@H](CC(C)C)NC(=O)[C@H](CCCCN)NC(=O)[C@@H](N)CC(C)C)C(=O)O | HEK-293T cells | CCK-8 | – | 4 h, 37 °C, 10% cell death | – | lowest cytotoxic concentration | > 256 µg/mL
CCOC(=O)Oc1c(OC)cc(C(=O)O[C@@H]2C[C@@H]3CN4CCc5c([nH]c6cc(OC)ccc56)[C@H]4C[C@@H]3[C@H](C(=O)OC)[C@H]2OC)cc1OC | African green monkey cells | – | – | 5 days | – | CC50 | 8.91 µM
O=[N+]([O-])c1ccc(O)cc1 | MDA-kb2 | cytotoxicity | – | – | – | AC50 | 58.2 µM
CNC1CC(c2ccc(Cl)c(Cl)c2)c2ccccc21 (stereo not shown) | African green monkey cells | – | – | 5 days | – | CC50 | 8.51 µM
O=c1ccc2ccccc2o1 | NHEK | cell count | – | concentration not given, 1 h, PGC1alpha mitochondrial stress panel | – | chance response | 0.03%
Cc1cc(C(C)(C)c2ccc(O)c(C)c2)ccc1O | HepG2 spheroids, dissociated | annexin V-FITC/PI flow cytometry | – | 40 µM, 24 h | – | late apoptotic cells | 11.7 ± 1.94%
Nc1nc2c(ncn2[C@@H]2O[C@@H]3COP(=O)(O)O[C@H]4[C@@H](O)[C@H](n5cnc6c(N)ncnc65)O[C@@H]4COP(=O)(O)O[C@@H]2[C@@H]3O)c(=O)[nH]1 | HFF-1 | – | – | 1 µg/mL | – | viability | 96.9%
CN(C)C(=O)c1cc2cnc(Nc3ccc(N4CCNCC4)cn3)nc2n1C1CCCC1 | African green monkey cells | – | – | 5 days | – | CC50 | 38.9 µM
